Experimental data collected from several papers.
Protocols differ between the studies behind these lines.

SMILES = C=CCn1c(=O)c2cnc(Nc3ccc(N4CCN(C)CC4)cc3)nc2n1-c1cccc(C(C)(C)O)n1; system = human; setting = oral, 150 mg twice daily, cycle 1 day 17, added: durvalumab 1500 mg IV; scale = geometric mean; Cmax = 680 nM
SMILES = CN1C(=O)[C@@H](NC(=O)c2nnc(Cc3ccccc3)[nH]2)COc2cccnc21; system = healthy human, fasted, plasma; setting = oral, 400 mg single dose, geometric mean; Cmax = 4760 ng/mL
SMILES = C[C@@H]1CCO[C@H]2Cn3cc(C(=O)NCc4ccc(F)cc4F)c(=O)c(O)c3C(=O)N12; system = human, age ≥1 months, body weight 3 to <6 kg, plasma; setting = oral, 10 mg, dispersible tablet, steady state; Cmax = 5950 ng/mL
SMILES = CO[C@H]1C[C@@H]2CC[C@@H](C)[C@@](O)(O2)C(=O)C(=O)N2CCCC[C@H]2C(=O)O[C@H]([C@H](C)C[C@@H]2CC[C@@H](OC(=O)NCCOCCOCCOCCOCCOCCOCCOCCOCCC(=O)N3CCc4cc(Cn5nc(-c6ccc7oc(N)nc7c6)c6c(N)ncnc65)ccc4C3)[C@H](OC)C2)C[C@@H](O)[C@H](C)/C=C(\C)[C@@H](O)[C@@H](OC)C(=O)[C@H](C)C[C@H](C)/C=C/C=C/C=C/1C; system = human, plasma; setting = intravenous, 3 mg, cycle 1 day 1, arithmetic mean; Cmax = 56.8 ng/mL
SMILES = COc1ncc(-c2nc3c(n2C(C)C)[C@H](c2ccc(Cl)cc2)N(c2cc(Cl)cn(C)c2=O)C3=O)c(OC)n1; test = LC-MS/MS; system = human, plasma; setting = oral, 4 mg, cycle 1 day 8, low-dose arm; Cmax = 24 ng/mL
SMILES = CC(C)[C@H](N)C(=O)NCCCS(=O)(=O)O; system = human, plasma; setting = oral, 256.5 mg once daily days 8-14, day 14, fasted, capsule; Cmax = 6070 ng/mL
SMILES = CNC(=O)c1ccc(-c2cnc3ncc(Cc4ccc5ncccc5c4)n3n2)cc1F; system = human, healthy subjects, plasma; setting = oral, 200 mg, covariate-adjusted geometric mean; Cmax = 1650 ng/mL
SMILES = O=C(COc1ccc(Cl)cc1)NC12CC(c3nnc([C@H]4C[C@@H](OC(F)(F)F)C4)o3)(C1)C2; system = healthy human volunteers fasted, plasma; setting = oral, 15 mg single dose, arithmetic mean; Cmax = 175 nM
SMILES = CCn1cc(C(=O)N2CCOCC2)c(=O)c2cc(NC3Cc4ccccc4C3)cnc21; system = human, fasted; setting = oral suspension, 2000 mg single dose, arithmetic mean; Cmax = 852 ng/mL
SMILES = CCN1CCN(Cc2ccc(Nc3ncc(F)c(-c4cc(F)c5nc6n(c5c4)[C@H](C)CCC6)n3)nc2)CC1; system = human, plasma; setting = 200 mg single dose, mean; Cmax = 131 ng/mL
